Results of several laboratories.
Protocols differ between the studies behind these lines. Several values in a cell are separate wells, animals, samples, runs or records. Numbers after ± are the reported error.
Sequence of UniProt O75582 (whole entry, looked up): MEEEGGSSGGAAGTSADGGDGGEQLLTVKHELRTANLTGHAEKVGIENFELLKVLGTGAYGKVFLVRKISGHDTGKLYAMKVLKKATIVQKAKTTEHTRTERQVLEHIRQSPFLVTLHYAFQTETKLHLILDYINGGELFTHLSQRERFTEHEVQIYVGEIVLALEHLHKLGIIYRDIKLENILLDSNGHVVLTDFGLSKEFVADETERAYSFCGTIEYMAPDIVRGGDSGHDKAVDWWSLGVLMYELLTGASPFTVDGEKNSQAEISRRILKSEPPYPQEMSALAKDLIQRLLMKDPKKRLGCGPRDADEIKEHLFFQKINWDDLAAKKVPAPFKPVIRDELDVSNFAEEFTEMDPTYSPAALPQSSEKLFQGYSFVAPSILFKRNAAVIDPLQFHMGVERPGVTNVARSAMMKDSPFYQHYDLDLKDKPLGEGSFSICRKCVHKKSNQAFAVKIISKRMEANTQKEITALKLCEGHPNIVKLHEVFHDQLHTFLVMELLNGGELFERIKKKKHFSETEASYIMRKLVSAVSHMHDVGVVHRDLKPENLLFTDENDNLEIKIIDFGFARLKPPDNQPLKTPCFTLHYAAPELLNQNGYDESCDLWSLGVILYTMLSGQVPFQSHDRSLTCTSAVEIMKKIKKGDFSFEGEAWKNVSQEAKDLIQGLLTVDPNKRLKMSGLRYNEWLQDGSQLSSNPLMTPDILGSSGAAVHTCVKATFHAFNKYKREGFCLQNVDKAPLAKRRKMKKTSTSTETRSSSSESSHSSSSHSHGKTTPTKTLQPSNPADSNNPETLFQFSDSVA
Sequence of UniProt O75676 (whole entry, looked up): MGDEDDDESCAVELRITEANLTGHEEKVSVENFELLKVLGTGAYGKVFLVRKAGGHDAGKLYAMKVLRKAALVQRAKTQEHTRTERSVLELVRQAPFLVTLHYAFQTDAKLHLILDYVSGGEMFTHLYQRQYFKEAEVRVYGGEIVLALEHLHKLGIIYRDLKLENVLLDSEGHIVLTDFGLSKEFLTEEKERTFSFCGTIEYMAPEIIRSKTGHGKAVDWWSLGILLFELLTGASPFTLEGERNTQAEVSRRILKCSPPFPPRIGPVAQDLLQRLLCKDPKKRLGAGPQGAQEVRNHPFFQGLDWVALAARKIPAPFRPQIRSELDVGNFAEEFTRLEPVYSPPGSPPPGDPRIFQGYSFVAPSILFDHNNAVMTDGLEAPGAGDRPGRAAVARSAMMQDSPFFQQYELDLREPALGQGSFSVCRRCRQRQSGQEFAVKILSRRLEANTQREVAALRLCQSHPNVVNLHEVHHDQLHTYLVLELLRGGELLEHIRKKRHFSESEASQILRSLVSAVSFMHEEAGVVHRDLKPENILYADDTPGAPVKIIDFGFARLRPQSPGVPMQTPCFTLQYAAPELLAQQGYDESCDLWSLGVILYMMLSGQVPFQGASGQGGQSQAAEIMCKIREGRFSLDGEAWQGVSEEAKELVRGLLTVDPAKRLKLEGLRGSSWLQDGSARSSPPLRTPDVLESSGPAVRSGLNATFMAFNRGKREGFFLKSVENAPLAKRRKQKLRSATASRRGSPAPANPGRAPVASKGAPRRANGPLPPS

| SMILES | target or system | assay | test system | conditions | how to read | measurement | result |
| --- | --- | --- | --- | --- | --- | --- | --- |
| CC(=O)NCCCC[C@@H]1NC(=O)[C@H](Cc2c[nH]c3c(C)cccc23)NC(=O)[C@H]([C@@H](C)O)NC(=O)[C@H](CC(N)=O)NC(=O)[C@@H](NC(C)=O)C(C)(C)SSC(C)(C)[C@@H](C(=O)N[C@@H](Cc2ccc(OCCN)cc2)C(=O)N[C@@H](Cc2ccc3ccccc3c2)C(=O)NC2(C(=O)N[C@@H](CCC(=O)O)C(=O)N[C@@H](CC(N)=O)C(=O)N[C@@H](Cc3cccnc3)C(=O)N(C)CC(N)=O)CCOCC2)NC1=O | – | equilibrium dialysis | rat, plasma | 0.01 µM | – | unbound fraction | 49.2 ± 3% |
| CCCCCCCCCCCCCCCC(=O)N[C@@H](CCC(=O)NCCOCCOCCC(=O)NCCOCCOCCC(=O)NCCCC[C@H](NC(=O)[C@H](CC(=O)O)NC(=O)[C@H](CC(C)C)NC(=O)[C@H](Cc1ccc(O)cc1)NC(=O)[C@H](CCCCN)NC(=O)[C@H](CO)NC(=O)[C@H](Cc1ccc(O)cc1)NC(=O)[C@H](CC(=O)O)NC(=O)[C@H](CO)NC(=O)[C@@H](NC(=O)[C@H](Cc1ccccc1)NC(=O)[C@@H](NC(=O)CNC(=O)[C@H](CCC(N)=O)NC(=O)[C@@H](CO)NC(=O)[C@@H](N)Cc1c[nH]cn1)[C@@H](C)O)[C@@H](C)O)C(=O)N[C@@H](CCCNC(=N)N)C(=O)N[C@@H](CCCNC(=N)N)C(=O)N[C@@H](C)C(=O)N[C@@H](CCC(N)=O)C(=O)N[C@@H](CC(=O)O)C(=O)N[C@@H](Cc1ccccc1)C(=O)N[C@H](C(=O)N[C@@H](CCC(N)=O)C(=O)N[C@@H](Cc1c[nH]c2ccccc12)C(=O)N[C@@H](CC(C)C)C(=O)N[C@@H](CC(C)C)C(=O)N[C@@H](CC(N)=O)C(=O)N[C@H](C(=O)NCC(=O)NCC(=O)N1CCC[C@H]1C(=O)N[C@@H](CO)C(=O)N[C@@H](CO)C(=O)NCC(=O)N[C@@H](C)C(=O)N1CCC[C@H]1C(=O)N1CCC[C@H]1C(=O)N1CCC[C@H]1C(=O)N[C@@H](CO)C(N)=O)[C@@H](C)O)C(C)C)C(=O)O | – | – | rhesus monkey, female, plasma | subcutaneous, 300 µg/kg, day 1, toxicokinetics, mean | – | AUC(0-t) | 4440 ng·h/mL |
| C#Cc1c(F)ccc2cc(O)cc(-c3ncc4c(N5CC6CCC(C5)N6C(=O)OCOC(=O)CCC)nc(OC[C@@]56CCCN5C[C@H](F)C6)nc4c3F)c12 | – | refers to: prodrug | mouse whole blood | 1 µM | – | t1/2 | 1.81 min |
| CN1Cc2cc(Cl)ccc2-n2c(nnc2C2CCN(c3cccc(F)n3)CC2)C1 | – | mass spectrometry | male Sprague-Dawley rat, brain | intravenous, 0.03 mg/kg, 30 min, single dose | – | concentration | 2.67 ng/mL |
| CC(C)(C)C(=O)OCOP(=O)(OCOC(=O)C(C)(C)C)C1CCCN(O)C1=O (stereo not shown) | SK-MEL-2 | – | – | – | – | GI50 | 1550 nM |
| CN(C)[C@H]1C[C@@]23CC[C@@]4(O2)C(=CC[C@]2(C)[C@@H](c5ccc6ccncc6c5)CC[C@H]24)C=C3[C@@H](O)[C@@H]1O | Ribosomal protein S6 kinase alpha-5, N-terminal kinase domain (RPS6KA5, Homo sapiens, UniProt O75582) | ATP probe labelling, inhibitor, KiNativ profiling | – | 1 µM | – | inhibition | 8.3% |
| CC(=O)N(Cc1ccccc1)[C@@H](C)C(=O)N(C)[C@@H](C)C(=O)N(Cc1c[nH]c2cc(Cl)ccc12)[C@@H](C)C(=O)N(C)[C@@H](C)C(=O)N(CCC(C)(C)C)[C@@H](C)C(N)=O | – | – | PAMPA | 10 µM, 4 h, pH 7.4 | – | Papp | 0.14 ×10⁻⁶ cm/s |
| CSCC[C@H](N)C(=O)N[C@@H](C)C(=O)N[C@@H](Cc1c[nH]c2ccccc12)C(=O)N[C@@H](Cc1c[nH]cn1)C(=O)N[C@@H](CC(=O)O)C(=O)N[C@@H](CC(=O)O)C(=O)N[C@@H](CCC(=O)O)C(=O)N[C@@H](CCC(=O)O)C(=O)N[C@@H](Cc1ccccc1)C(=O)N[C@@H](C)C(=O)N[C@@H](CCCNC(=N)N)C(=O)N[C@@H](CCCNC(=N)N)C(=O)N[C@@H](CCCNC(=N)N)C(=O)N[C@@H](CCCNC(=N)N)C(=O)NCCCCCC(=O)NCCCCC(NC(=O)CCCCCNC(=O)[C@H](CCCNC(=N)N)NC(=O)[C@H](CCCNC(=N)N)NC(=O)[C@H](CCCNC(=N)N)NC(=O)[C@H](CCCNC(=N)N)NC(=O)[C@H](C)NC(=O)[C@H](Cc1ccccc1)NC(=O)[C@H](CCC(=O)O)NC(=O)[C@H](CCC(=O)O)NC(=O)[C@H](CC(=O)O)NC(=O)[C@H](CC(=O)O)NC(=O)[C@H](Cc1c[nH]cn1)NC(=O)[C@H](Cc1c[nH]c2ccccc12)NC(=O)[C@H](C)NC(=O)[C@@H](N)CCSC)C(=O)NCCCCC(NC(=O)C(CCCCNC(=O)CCCCCNC(=O)[C@H](CCCNC(=N)N)NC(=O)[C@H](CCCNC(=N)N)NC(=O)[C@H](CCCNC(=N)N)NC(=O)[C@H](CCCNC(=N)N)NC(=O)[C@H](C)NC(=O)[C@H](Cc1ccccc1)NC(=O)[C@H](CCC(=O)O)NC(=O)[C@H](CCC(=O)O)NC(=O)[C@H](CC(=O)O)NC(=O)[C@H](CC(=O)O)NC(=O)[C@H](Cc1c[nH]cn1)NC(=O)[C@H](Cc1c[nH]c2ccccc12)NC(=O)[C@H](C)NC(=O)[C@@H](N)CCSC)NC(=O)CCCCCNC(=O)[C@H](CCCNC(=N)N)NC(=O)[C@H](CCCNC(=N)N)NC(=O)[C@H](CCCNC(=N)N)NC(=O)[C@H](CCCNC(=N)N)NC(=O)[C@H](C)NC(=O)[C@H](Cc1ccccc1)NC(=O)[C@H](CCC(=O)O)NC(=O)[C@H](CCC(=O)O)NC(=O)[C@H](CC(=O)O)NC(=O)[C@H](CC(=O)O)NC(=O)[C@H](Cc1c[nH]cn1)NC(=O)[C@H](Cc1c[nH]c2ccccc12)NC(=O)[C@H](C)NC(=O)[C@@H](N)CCSC)C(N)=O (stereo partly shown) | – | – | C57BL/6 mouse female, uterus | dose not given, 6 h | reference: total | mean tissue distribution | 1.52% |
| NC1CCN(C(=O)Oc2ccc(C3CCCC4(C3)OOC3(O4)C4CC5CC(C4)CC3C5)cc2)CC1 (racemic) | – | – | male Sprague-Dawley rat, plasma | intravenous, 10 mg/kg | – | MRT(0-inf) | 10.1 h |
| C[C@H](O)[C@@H](NC(=O)[C@H]1CCCN1C(=O)[C@@H](CCCCN)NC(=O)[C@@H](CO)NC(=O)[C@@H](Cc1ccc(O)cc1)NC(=O)[C@@H](CC(N)=O)NC(=O)CCOCCOCCOCCNC(=O)CN1CCN(CC(=O)O)CCN(CC(=O)O)CCN(CC(=O)O)CC1)C(=O)N[C@H](CC(=O)O)C(=O)N[C@H](CCCNC(=N)N)C(=O)N[C@H](CCC(N)=O)C(=O)N[C@H](Cc1ccc(O)cc1)C(=O)N[C@H](Cc1c[nH]cn1)C(=O)N[C@H](Cc1ccccc1)C(N)=O [copper-64 labelled] | – | – | C57BL/6J mice, bone | intravenous, 1.85 MBq, 0.6667 h, radiolabelled | – | tissue uptake | 0.36 ± 0.08 %ID/g |
| COc1ccccc1-c1n[nH]c2nc(NC3CCN(C(=O)Cc4ccc(F)cc4F)CC3)ncc12 | – | bead binding, competition bead pull-down, refers to: LINJ.36.4380 | Leishmania donovani axenic amastigote extract | 10 µM | reference: vehicle | relative abundance | 0.87 |
| CC[C@H](C)[C@H](NC(=O)[C@H](CO)NC(=O)[C@H](Cc1ccc(O)cc1)NC(=O)[C@H](Cc1ccc(O)cc1)NC(=O)[C@H](CC(N)=O)NC(=O)CNC(=O)[C@H](CO)NC(=O)[C@H](Cc1ccc(O)cc1)NC(=O)[C@H](CO)NC(=O)[C@H](CO)NC(=O)[C@H](CC(N)=O)NC(=O)COCCOCCNC(=O)CN1CCN(CC(=O)O)CCN(CC(=O)O)CCN(CC(=O)O)CC1)C(=O)N[C@@H](CC(C)C)C(N)=O [copper-64 labelled] | – | dynamic PET | tamoxifen-induced PDAC mouse model, metastases | 5.5 min, CLDN4-expressing tumours | – | maximum metastasis uptake | 22.5 %IA/cc |
| CC(CCC(=O)NCC(=O)O)C1CCC2C3CCC4CC(OC5OC(C(=O)O)C(O)C(O)C5O)CCC4(C)C3CC(O)C12C (stereo not shown) | – | – | human men | dose not given, SLCO1B1 *5/*35 | – | plasma concentration | 79 ng/mL |
| C/C(=N\OCCCN1CCCCC1)c1ccc(C(F)(F)F)cc1 | – | – | rhesus monkey | dose not given, after dosing | – | QT interval | 140 ms and 164 ms |
| CC[C@H](C)[C@H](NC(=O)[C@H](CCCCN)NC(=O)CNC(=O)[C@H](CC(C)C)NC(=O)[C@H](Cc1ccccc1)NC(=O)[C@H](CCCCN)NC(=O)[C@H](CO)NC(=O)[C@H](Cc1ccccc1)NC(=O)[C@H](Cc1c[nH]c2ccccc12)NC(=O)[C@H](CCC(N)=O)NC(=O)[C@@H](NC(=O)[C@H](Cc1ccccc1)NC(=O)CCCCCNC(=O)CN1CCN(CC(=O)O)CCN(CC(=O)O)CCN(CC(=O)O)CC1)C(C)C)C(=O)N[C@@H](CCC(=O)O)C(=O)N1CCC[C@H]1C(=O)N[C@@H](CC(=O)O)C(=O)N[C@H](C(=O)N[C@@H](CO)C(=O)N[C@@H](CCC(N)=O)C(=O)N[C@H](C(=O)N[C@@H](CCC(N)=O)C(=O)N[C@@H](CC(=O)O)C(=O)N1CCC[C@H]1C(=O)N[C@@H](CC(N)=O)C(=O)N[C@@H](CC(=O)O)C(=O)N[C@@H](CCC(N)=O)C(=O)N[C@@H](Cc1ccc(O)cc1)C(=O)N[C@@H](CCC(=O)O)C(=O)N1CCC[C@H]1C(=O)N[C@@H](Cc1ccccc1)C(=O)O)C(C)C)C(C)C [copper-64 labelled] | – | dynamic PET | mouse both sexes, CT26 tumour, untreated, tumour | intravenous, 100 µCi/mouse, 630 s | – | SUVmean | 0.75 SUV |
| O=C1NC2(CC2)COc2ncc(F)cc2[C@H]2COCCN2c2ccn3ncc1c3n2 | – | – | Sprague-Dawley rat, male, kidneys | oral, 2.5 mg/kg/day, 4 weeks, end of treatment | – | organ-to-body weight ratio | 0.725 ± 0.057% |
| CSCC[C@H](NC(=O)[C@@H](NC(=O)[C@H](CC(C)C)NC(=O)[C@@H](NC(=O)[C@H](Cc1c[nH]cn1)NC(=O)CCCCCNC(=O)[C@H](CCCNC(=N)N)NC(=O)[C@H](CCCNC(=N)N)NC(=O)[C@H](CCCNC(=N)N)NC(=O)[C@H](CCC(N)=O)NC(=O)[C@H](CCCNC(=N)N)NC(=O)[C@H](CCCNC(=N)N)NC(=O)[C@H](CCCCN)NC(=O)[C@H](CCCCN)NC(=O)[C@H](CCCNC(=N)N)NC(=O)CNC(=O)[C@@H](N)Cc1ccc(O)cc1)C(C)C)C(C)C)C(=O)N[C@@H](CS)C(=O)N[C@@H](C)C(=O)N[C@H](C(N)=O)[C@@H](C)O | – | – | C57BL/6J mice | Alzet osmotic pump, 3 mg/kg, 8 weeks | – | alkaline phosphatase | 40 U/L and 73 U/L and 75 U/L |
| CNC(=O)C[C@H](Cc1ccc(F)cc1)NC(=O)[C@@H](Cc1ccc(Cl)cc1Cl)NC(=O)[C@H](N)Cc1ccccc1C#N | – | metabolic stability | human, liver microsomes | 1 µM | – | microsomal CLint | 697 µL/min/mg |
| CC(C)[C@H]1NC(=O)C[C@H]2/C=C/CCSSC[C@@H](NC1=O)C(=O)N[C@H](Cc1cccc3ccccc13)C(=O)NCC(=O)O2 | RPS6KA4 (Homo sapiens, UniProt O75676) | enzyme activity, inhibitor | – | 10 µM | – | inhibition | 0.227% |

Repeated from above:
| SMILES | target or system | assay | test system | conditions | how to read | measurement | result |
| --- | --- | --- | --- | --- | --- | --- | --- |
| CN1Cc2cc(Cl)ccc2-n2c(nnc2C2CCN(c3cccc(F)n3)CC2)C1 | – | mass spectrometry | male Sprague-Dawley rat, brain | intravenous, 0.03 mg/kg, 30 min, single dose | – | concentration | 2.67 ng/mL |
